Experimental data pooled from the literature.
Each numbered part is a random draw from the data of one study; scales do not carry over between parts. Values joined by “and” are separate records of one study, mostly repeats; a detail may differ.
Sequence of UniProt P10721 (whole entry, unmodified, looked up): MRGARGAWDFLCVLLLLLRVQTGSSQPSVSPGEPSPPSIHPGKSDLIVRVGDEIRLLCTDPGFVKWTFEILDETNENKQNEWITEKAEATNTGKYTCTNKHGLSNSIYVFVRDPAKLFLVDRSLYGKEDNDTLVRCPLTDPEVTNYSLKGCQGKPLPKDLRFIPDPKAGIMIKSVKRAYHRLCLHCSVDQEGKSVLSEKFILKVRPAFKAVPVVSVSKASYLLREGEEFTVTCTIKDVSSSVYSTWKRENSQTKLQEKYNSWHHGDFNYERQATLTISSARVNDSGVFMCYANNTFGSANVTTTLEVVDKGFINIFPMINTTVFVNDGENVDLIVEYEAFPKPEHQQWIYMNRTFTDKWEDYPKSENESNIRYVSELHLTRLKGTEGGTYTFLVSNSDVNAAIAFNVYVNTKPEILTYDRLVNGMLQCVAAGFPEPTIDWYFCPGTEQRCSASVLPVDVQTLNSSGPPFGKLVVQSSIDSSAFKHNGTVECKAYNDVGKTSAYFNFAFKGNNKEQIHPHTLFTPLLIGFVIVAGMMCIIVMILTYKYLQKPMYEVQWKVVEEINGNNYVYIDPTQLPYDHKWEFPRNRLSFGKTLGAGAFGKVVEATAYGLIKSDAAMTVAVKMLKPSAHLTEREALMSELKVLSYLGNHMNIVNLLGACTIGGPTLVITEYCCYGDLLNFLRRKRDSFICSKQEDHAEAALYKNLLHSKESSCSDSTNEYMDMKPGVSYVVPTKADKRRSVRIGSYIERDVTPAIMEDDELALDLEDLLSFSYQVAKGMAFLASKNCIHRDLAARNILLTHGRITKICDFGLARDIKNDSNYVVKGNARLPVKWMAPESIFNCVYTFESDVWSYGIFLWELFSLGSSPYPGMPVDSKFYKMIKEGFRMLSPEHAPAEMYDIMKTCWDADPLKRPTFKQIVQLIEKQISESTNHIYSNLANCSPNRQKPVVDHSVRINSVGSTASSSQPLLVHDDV
Sequence of UniProt Q9Y2H1 (whole entry, looked up): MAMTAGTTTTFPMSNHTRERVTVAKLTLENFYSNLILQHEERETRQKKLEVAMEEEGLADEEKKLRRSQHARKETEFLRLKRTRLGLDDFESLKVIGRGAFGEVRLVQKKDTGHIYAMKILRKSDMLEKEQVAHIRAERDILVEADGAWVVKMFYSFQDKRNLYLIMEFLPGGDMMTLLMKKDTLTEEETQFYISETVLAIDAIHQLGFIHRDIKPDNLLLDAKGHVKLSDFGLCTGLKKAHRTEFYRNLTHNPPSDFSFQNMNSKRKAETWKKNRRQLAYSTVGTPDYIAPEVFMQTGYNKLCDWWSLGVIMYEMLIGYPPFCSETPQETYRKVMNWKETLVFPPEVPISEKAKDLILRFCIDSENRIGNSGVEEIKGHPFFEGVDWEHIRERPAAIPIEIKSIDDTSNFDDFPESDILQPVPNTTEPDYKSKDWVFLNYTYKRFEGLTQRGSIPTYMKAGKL
Sequence of UniProt P29317 (whole entry, looked up): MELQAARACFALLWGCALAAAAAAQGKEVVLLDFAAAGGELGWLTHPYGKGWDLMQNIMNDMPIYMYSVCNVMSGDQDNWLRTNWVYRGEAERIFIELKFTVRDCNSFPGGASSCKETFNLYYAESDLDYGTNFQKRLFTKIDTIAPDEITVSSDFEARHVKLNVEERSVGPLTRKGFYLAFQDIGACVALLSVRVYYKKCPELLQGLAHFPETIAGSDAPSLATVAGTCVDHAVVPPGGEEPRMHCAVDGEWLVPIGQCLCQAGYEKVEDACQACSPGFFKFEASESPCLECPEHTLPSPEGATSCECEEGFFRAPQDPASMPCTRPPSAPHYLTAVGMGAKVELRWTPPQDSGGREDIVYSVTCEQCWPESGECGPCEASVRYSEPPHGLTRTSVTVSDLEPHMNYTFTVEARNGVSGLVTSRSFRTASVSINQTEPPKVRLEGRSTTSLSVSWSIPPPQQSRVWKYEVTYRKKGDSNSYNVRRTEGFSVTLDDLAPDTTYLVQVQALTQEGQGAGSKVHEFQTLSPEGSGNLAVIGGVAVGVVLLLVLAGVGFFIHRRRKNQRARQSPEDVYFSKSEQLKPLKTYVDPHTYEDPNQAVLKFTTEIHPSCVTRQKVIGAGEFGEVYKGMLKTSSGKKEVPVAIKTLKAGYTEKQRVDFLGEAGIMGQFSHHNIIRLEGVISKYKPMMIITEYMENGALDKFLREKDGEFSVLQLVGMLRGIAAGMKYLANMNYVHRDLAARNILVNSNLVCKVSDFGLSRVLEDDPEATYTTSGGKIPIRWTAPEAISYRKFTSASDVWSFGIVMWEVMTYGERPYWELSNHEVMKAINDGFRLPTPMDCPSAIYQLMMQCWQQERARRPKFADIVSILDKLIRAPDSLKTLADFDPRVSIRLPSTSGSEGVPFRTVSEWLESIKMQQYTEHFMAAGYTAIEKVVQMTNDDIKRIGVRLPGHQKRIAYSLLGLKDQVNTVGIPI
Sequence of UniProt P15056 (whole entry, unmodified, looked up): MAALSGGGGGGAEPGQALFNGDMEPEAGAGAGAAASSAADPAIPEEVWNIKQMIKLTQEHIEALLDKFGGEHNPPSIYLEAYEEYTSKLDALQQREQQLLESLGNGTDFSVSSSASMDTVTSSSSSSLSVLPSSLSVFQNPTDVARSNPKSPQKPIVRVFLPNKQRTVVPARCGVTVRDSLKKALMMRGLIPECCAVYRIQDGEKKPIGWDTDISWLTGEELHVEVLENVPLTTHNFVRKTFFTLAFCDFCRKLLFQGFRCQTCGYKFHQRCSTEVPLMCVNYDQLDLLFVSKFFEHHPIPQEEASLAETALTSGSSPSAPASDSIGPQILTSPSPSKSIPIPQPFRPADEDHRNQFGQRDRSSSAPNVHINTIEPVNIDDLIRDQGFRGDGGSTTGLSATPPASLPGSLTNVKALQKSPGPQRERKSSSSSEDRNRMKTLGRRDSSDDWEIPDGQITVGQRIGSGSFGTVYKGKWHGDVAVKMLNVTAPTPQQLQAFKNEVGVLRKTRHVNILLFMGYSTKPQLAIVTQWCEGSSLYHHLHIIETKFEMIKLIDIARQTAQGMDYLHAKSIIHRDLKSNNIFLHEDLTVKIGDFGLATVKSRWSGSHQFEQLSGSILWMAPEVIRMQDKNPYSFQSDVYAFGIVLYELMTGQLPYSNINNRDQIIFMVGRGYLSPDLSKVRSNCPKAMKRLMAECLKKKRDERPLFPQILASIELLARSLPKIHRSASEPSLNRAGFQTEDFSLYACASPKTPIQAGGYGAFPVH
Sequence of UniProt Q00535 (whole entry, looked up): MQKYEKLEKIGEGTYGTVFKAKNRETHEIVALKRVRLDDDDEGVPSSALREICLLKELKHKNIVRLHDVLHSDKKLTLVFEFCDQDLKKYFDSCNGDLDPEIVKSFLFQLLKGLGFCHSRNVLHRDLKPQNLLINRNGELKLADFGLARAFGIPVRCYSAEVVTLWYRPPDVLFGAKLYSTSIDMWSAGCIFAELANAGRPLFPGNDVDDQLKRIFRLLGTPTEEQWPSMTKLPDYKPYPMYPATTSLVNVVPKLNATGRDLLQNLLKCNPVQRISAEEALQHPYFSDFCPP

Block 1
Structure (SMILES): CC[C@@]1(c2cccc(-c3c(F)cncc3OC)c2)C2=C(Nc3n[nH]cc31)[C@H](F)C(C)(C)CC2=O (single isomer, unassigned)
Concentration: 1 µM
Endpoint: remaining binding
target = SLK (Homo sapiens, UniProt Q9H2G2); observed = binding; method = competition with immobilised ligand; value = 89%
target = CAMK2D (Homo sapiens, UniProt Q13557); observed = binding; method = competition with immobilised ligand; value = 98%
target = PIK3CD (Homo sapiens, UniProt O00329); observed = binding; method = competition with immobilised ligand; value = 100%
target = STK38L (Homo sapiens, UniProt Q9Y2H1); observed = kinase binding; method = KINOMEscan; relative to = DMSO control; value = 98%
target = GAK (Homo sapiens, UniProt O14976); observed = kinase binding; method = KINOMEscan; relative to = DMSO control; value = 95%
target = CAMK2A (Homo sapiens, UniProt Q9UQM7); observed = binding; method = competition with immobilised ligand; value = 82%
target = IRAK4 (Homo sapiens, UniProt Q9NWZ3); observed = binding; method = competition with immobilised ligand; value = 84%
target = ALK (Homo sapiens, UniProt Q9UM73); observed = binding; method = competition with immobilised ligand; value = 81%
target = BRAF (Homo sapiens, UniProt P15056, V600E); observed = binding; method = competition with immobilised ligand; value = 84%
target = GRK2 (Homo sapiens, UniProt P25098); observed = binding; method = competition with immobilised ligand; value = 54%
target = MINK1 (Homo sapiens, UniProt Q8N4C8); observed = binding; method = competition with immobilised ligand; value = 41%
target = PIK3CA (Homo sapiens, UniProt P42336, C420R); observed = kinase binding; method = KINOMEscan; relative to = DMSO control; value = 88%
target = IKBKB (Homo sapiens, UniProt O14920); observed = kinase binding; method = KINOMEscan; relative to = DMSO control; value = 64%
target = LRRK2 (Homo sapiens, UniProt Q5S007, G2019S); observed = kinase binding; method = KINOMEscan; relative to = DMSO control; value = 74%
target = EPHA7 (Homo sapiens, UniProt Q15375); observed = kinase binding; method = KINOMEscan; relative to = DMSO control; value = 82%
target = KIT (Homo sapiens, UniProt P10721, L576P); observed = binding; method = competition with immobilised ligand; value = 100%
target = EPHA2 (Homo sapiens, UniProt P29317); observed = binding; method = competition with immobilised ligand; value = 100%
target = KIT (Homo sapiens, UniProt P10721, T670I/V559D); observed = binding; method = competition with immobilised ligand; value = 100%

Block 2
SMILES: C[C@@H]1CN(c2ccc(-c3cc(C(=O)NCCOCCOCCOCCOCCNC(=O)Cn4cc(-c5[nH]cc(C(=O)N[C@@H](CC(N)=O)c6ccc(F)c(Cl)c6)c5-c5ccc(Cl)cc5F)cn4)ccc3F)cc2NC(=O)c2c[nH]c(=O)cc2C(F)(F)F)C[C@H](C)N1C
Observed: thermal unfolding
Method: differential scanning fluorimetry
Concentration: 5.5 µM
Reading: higher = more unfolded
Endpoint: SYPRO Orange fluorescence
WDR5: WD repeat-containing protein 5 (WDR5, Homo sapiens, UniProt P61964)
DCAF1: DDB1- and CUL4-associated factor 1 (DCAF1, Homo sapiens, UniProt Q9Y4B6)
Sequence of UniProt Q9Y4B6 (whole entry, looked up): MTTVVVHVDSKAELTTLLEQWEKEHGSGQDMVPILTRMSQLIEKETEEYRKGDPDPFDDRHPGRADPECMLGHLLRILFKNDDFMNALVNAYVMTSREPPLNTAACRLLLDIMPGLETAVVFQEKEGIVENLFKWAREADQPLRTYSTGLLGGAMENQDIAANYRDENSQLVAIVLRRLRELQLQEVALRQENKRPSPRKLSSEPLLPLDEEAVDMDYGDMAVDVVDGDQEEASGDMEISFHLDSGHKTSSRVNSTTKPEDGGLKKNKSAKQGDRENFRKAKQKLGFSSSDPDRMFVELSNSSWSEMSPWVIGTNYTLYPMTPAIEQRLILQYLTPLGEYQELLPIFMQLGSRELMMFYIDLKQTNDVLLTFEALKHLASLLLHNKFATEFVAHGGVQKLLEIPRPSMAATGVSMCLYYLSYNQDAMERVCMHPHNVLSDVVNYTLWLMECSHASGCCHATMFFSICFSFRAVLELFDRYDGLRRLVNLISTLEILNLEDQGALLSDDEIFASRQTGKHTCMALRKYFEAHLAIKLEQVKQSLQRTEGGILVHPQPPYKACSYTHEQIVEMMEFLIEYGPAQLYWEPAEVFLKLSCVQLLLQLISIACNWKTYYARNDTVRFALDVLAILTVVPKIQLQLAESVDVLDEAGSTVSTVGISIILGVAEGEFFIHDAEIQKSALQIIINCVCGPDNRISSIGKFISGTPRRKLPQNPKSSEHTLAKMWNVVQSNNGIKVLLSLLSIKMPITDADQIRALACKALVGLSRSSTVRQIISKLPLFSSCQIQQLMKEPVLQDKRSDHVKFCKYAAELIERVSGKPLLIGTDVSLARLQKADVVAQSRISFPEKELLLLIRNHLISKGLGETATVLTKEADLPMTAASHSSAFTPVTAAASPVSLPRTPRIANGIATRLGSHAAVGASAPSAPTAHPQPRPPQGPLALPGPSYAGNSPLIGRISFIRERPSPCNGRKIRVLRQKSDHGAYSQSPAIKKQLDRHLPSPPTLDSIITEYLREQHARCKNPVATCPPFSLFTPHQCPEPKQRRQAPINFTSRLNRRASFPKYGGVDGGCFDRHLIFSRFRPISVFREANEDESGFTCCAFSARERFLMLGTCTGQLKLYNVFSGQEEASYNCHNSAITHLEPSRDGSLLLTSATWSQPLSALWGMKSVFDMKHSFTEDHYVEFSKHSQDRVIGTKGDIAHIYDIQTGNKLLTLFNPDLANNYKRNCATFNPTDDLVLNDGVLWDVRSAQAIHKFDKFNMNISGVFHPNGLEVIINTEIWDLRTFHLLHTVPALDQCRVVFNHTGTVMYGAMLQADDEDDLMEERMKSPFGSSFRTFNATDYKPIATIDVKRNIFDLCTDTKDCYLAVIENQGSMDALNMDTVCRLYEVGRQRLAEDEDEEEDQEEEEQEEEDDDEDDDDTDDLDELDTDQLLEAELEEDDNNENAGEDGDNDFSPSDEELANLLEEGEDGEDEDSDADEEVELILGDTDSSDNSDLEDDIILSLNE
target = WDR5; temperature = 48.8 °C; value = 14500 a.u.
target = DCAF1; temperature = 58.01 °C; value = 28900 a.u.
target = WDR5; temperature = 86.81 °C; value = 42700 a.u.
target = DCAF1; temperature = 33.2 °C; value = 8410 a.u.
target = WDR5; temperature = 64.61 °C; value = 7840 a.u.
target = DCAF1; temperature = 47.2 °C; value = 13300 a.u.
target = WDR5; temperature = 32 °C; value = 14500 a.u.
target = WDR5; temperature = 39.6 °C; value = 14300 a.u.
target = DCAF1; temperature = 38 °C; value = 9660 a.u.
target = DCAF1; temperature = 86.01 °C; value = 38700 a.u.
target = WDR5; temperature = 78.61 °C; value = 19000 a.u.

Block 3
SMILES: COc1cc(-c2nc3ccc(C(=O)NCCCN4CCN(c5cccc(C)c5C)CC4)cc3n2C2CCC2)cc(OC)c1OC
Concentration: 1 µM
Endpoint: remaining binding
target = EPHA4 (Homo sapiens, UniProt P54764); observed = binding; method = competition with immobilised ligand; value = 95%
target = BMPR1B (Homo sapiens, UniProt O00238); observed = binding; method = competition with immobilised ligand; value = 35%
target = CDC42BPB (Homo sapiens, UniProt Q9Y5S2); observed = binding; method = competition with immobilised ligand; value = 83%
target = PAK1 (Homo sapiens, UniProt Q13153); observed = binding; method = competition with immobilised ligand; value = 97%
target = EGFR (Homo sapiens, UniProt P00533, L861Q); observed = binding; method = competition with immobilised ligand; value = 76%
target = SIK1 (Homo sapiens, UniProt P57059); method = KINOMEscan; relative to = control; value = 87%
target = CDK5 (Homo sapiens, UniProt Q00535); observed = binding; method = competition with immobilised ligand; value = 95%
target = EPHB3 (Homo sapiens, UniProt P54753); observed = binding; method = competition with immobilised ligand; value = 93%
target = EPHA1 (Homo sapiens, UniProt P21709); observed = binding; method = competition with immobilised ligand; value = 91%
target = STK38L (Homo sapiens, UniProt Q9Y2H1); observed = binding; method = competition with immobilised ligand; value = 74%
target = Tyrosine-protein kinase ABL1, non-phosphorylated (ABL1, Homo sapiens, UniProt P00519, Q252H); observed = binding; method = competition with immobilised ligand; value = 81%
target = Tyrosine-protein kinase ABL1, phosphorylated (ABL1, Homo sapiens, UniProt P00519, E255K); observed = binding; method = competition with immobilised ligand; value = 62%
target = IRAK3 (Homo sapiens, UniProt Q9Y616); observed = binding; method = competition with immobilised ligand; value = 100%
target = RIPK1 (Homo sapiens, UniProt Q13546); observed = binding; method = competition with immobilised ligand; value = 100%
target = FLT3 (Homo sapiens, UniProt P36888, K663Q); observed = binding; method = competition with immobilised ligand; value = 97%
target = YES1 (Homo sapiens, UniProt P07947); observed = binding; method = competition with immobilised ligand; value = 67%
target = AKT2 (Homo sapiens, UniProt P31751); observed = binding; method = competition with immobilised ligand; value = 100%

Block 4
SMILES: CN1CCC[C@H]1COc1nc2c(c(N3CCN(C(=O)C4CC4)[C@@H](CC#N)C3)n1)CCN(c1cccc3cccc(Cl)c13)C2
Observed: binding
Action: competitor
Method: NanoBRET
Cell line: HEK293
Endpoint: normalized BRET
KRAS Q61L: GTPase KRas (KRAS, Homo sapiens, UniProt P01116, Q61L)
KRAS G13D: GTPase KRas (KRAS, Homo sapiens, UniProt P01116, G13D)
target = KRAS Q61L; concentration = 412 nM; value = 90.4% and 90.6% and 82.9%
target = GTPase KRas (KRAS, Homo sapiens, UniProt P01116, Q61H); concentration = 45.7 nM; value = 95.2% and 96% and 106%
target = KRAS Q61L; concentration = 45.7 nM; value = 92.5% and 82.3% and 88.6%
target = GTPase KRas (KRAS, Homo sapiens, UniProt P01116, G12D); concentration = 137 nM; value = 103% and 104% and 97.2%
target = KRAS G13D; concentration = 45.7 nM; value = 99.8% and 97.8% and 85.2%
target = KRAS G13D; concentration = 5.08 nM; value = 93.2% and 102% and 88.8%
target = KRAS Q61L; concentration = 33.3 µM; value = 26.6% and 20.1% and 27.9%
target = KRAS G13D; concentration = 1.69 nM; value = 95.9% and 104% and 90.4%
target = KRAS Q61L; concentration = 1.24 µM; value = 74.1% and 66.5% and 74.3%

Repeated from above (block 3):
target = CDK5 (Homo sapiens, UniProt Q00535); observed = binding; method = competition with immobilised ligand; value = 95%
target = RIPK1 (Homo sapiens, UniProt Q13546); observed = binding; method = competition with immobilised ligand; value = 100%
target = EGFR (Homo sapiens, UniProt P00533, L861Q); observed = binding; method = competition with immobilised ligand; value = 76%
